Published values of several laboratories.
Lines come from different studies, so protocols differ. Several values in a cell are separate wells, animals, samples, runs or records. ± marks the error that the study gave.

CSc1cc(Oc2ccnc3[nH]c(=O)cnc23)ccc1NC(=O)Nc1cc(C(C)(C)C)nn1-c1ccccc1 — phospho/total GSK-3β ratio (mean of patient lines P1-P3; reverse phase protein array, refers to: GSK-3β pSer9; 1 µM, 4 h; reference: DMSO): 0.55
Cc1ncc(CO)c(C(=O)O)c1O — log2 fold change (binding, MIDAS equilibrium dialysis LC-MS; A2AR-BRIL thermostabilized; concentration not given; reference: no-protein control): -0.0142
CCn1cc(-c2cc(Cn3ccoc3=N)cc3c2CCN([C@@H](C)c2cc(OC)ccn2)C3=O)c(C(F)(F)F)n1 — EC50 (SW480; cell growth, inhibitor; 120 h): > 30000 nM
Nc1ncnc2[nH]cnc12 — log2 fold change (binding, MIDAS equilibrium dialysis LC-MS; A2AR-BRIL thermostabilized; concentration not given; reference: no-protein control): 0.785
CC(C)NCC(O)c1ccc(O)c(O)c1 (stereo not drawn) — sarcomere length (ventricular cardiomyocytes, C57BL/6 mouse; dose not given, 0.404 s): 1.72 µm
CCn1cc(-c2cc(Cn3ccnc3)cc3c2CCN([C@H](c2cc(OC)ccn2)C2CC2)C3=O)c(C(F)(F)F)n1 — EC50 (SU-DHL-6; cell growth, inhibitor; 120 h): 1450 nM
Cc1ncc(COP(=O)(O)O)c(CN)c1O — log2 fold change (binding, MIDAS equilibrium dialysis LC-MS; A2AR-BRIL thermostabilized; concentration not given; reference: no-protein control): 0.634
Cn1cc(-c2ccc(-c3cncc(Cl)c3N3CCC4(CCNC4=O)CC3)cc2)cn1 — log2 fold change (COLO 205; gene expression, microarray, refers to: PLK4 mRNA; concentration not given, 6 h; reference: untreated cells): -2.63
O=C(O)CNC(=O)Cc1ccccc1 — sarcomere length (ventricular cardiomyocytes, C57BL/6 mouse; dose not given, 0.472 s): 1.68 µm
NC(=O)c1cnc2[nH]ccc2c1N[C@@H]1[C@@H]2CC3C[C@H]1C[C@@](O)(C3)C2 — percent change (CD4+ central memory T cells, flow cytometry; Caucasian humans, peripheral blood; 20 mg single dose; reference: baseline): -1.28%
OC(CCN1CCCCC1)(c1ccccc1)C1CC2C=CC1C2 (stereo not drawn) — gamma power, EEG, Pz-O1 (resting-state EEG; healthy elderly humans; oral, 4 mg, eyes closed, LS mean): 0.8 µV²
Cc1coc([C@H]2C[C@H]3[C@@H](CF)SC(N)=N[C@@]3(c3ccc(F)cc3F)CO2)n1 — Aβ40 level (refers to: Aβx-40; Mus musculus wild-type, cerebrospinal fluid; subcutaneous, 80 mg/kg, 5 h): 0.61 ng/mL
Cc1c(-c2ccc(N3CCc4cccc(C(=O)Nc5nc6ccccc6s5)c4C3)nc2C(=O)O)cnn1CC12CC3(C)CC(C)(C1)CC(OCCNCC[C@H](O)CO)(C3)C2 — heart rate change (beagle dog, male, anaesthetised; intravenous infusion, 0.3 mg/kg/min, 90 (unit not given); reference: vehicle): -15%
N#Cc1ccc2c(c1)[C@H]1CCCN(C(=O)c3ccc4[nH]cnc4c3)[C@H]1C2 — total urinary corticosteroid excretion (T2DM patients with overweight or obesity, urine; oral, 80 mg, day 1, 0-24 h, multiple dosing, adjusted geometric mean; reference: baseline day -1, -24-0 h): 161%
CC(=O)N[C@H]1[C@H](O[C@H]2[C@H](O)[C@@H](NC(C)=O)C(O)O[C@@H]2CO)O[C@H](CO)[C@@H](O)[C@@H]1O (stereo partly drawn) — log2 fold change (binding, MIDAS equilibrium dialysis LC-MS; A2AR-BRIL thermostabilized; concentration not given; reference: no-protein control): -0.107
N#Cc1ccn2c(-c3ccncc3)c(-c3ccc(F)cc3)nc2c1 — log2 fold change (kinase binding, competitor, MIB/MS competition, refers to: RCK2; Candida albicans cell lysate; 10 µM; reference: DMSO): -0.119
C[C@H](Oc1ccc(Br)cc1-c1ccon1)C(=O)O — difference from placebo (last response latency; human, tibialis anterior muscle; 800 mg, 15 Hz, SAD): -0.518%
O=P(O)(O)C(Cl)(Cl)P(=O)(O)O — VCAM-1 level (endothelial activation, immunostaining; mouse, SAH model, cortical capillaries; dose not given): 1.14 MFI and 3.52 MFI
Cc1cc([C@H]2C[C@H]3[C@@H](CF)SC(N)=N[C@@]3(c3ccc(F)cc3F)CO2)on1 — Aβ40 level (refers to: Aβx-40; Mus musculus wild-type, cerebrospinal fluid; subcutaneous, 30 mg/kg, 14 h): 1.11 ng/mL
O=c1ccn([C@@H]2O[C@H](CO)[C@@H](O)[C@H]2O)c(=O)[nH]1 — log2 fold change (binding, MIDAS equilibrium dialysis LC-MS; A2AR-BRIL thermostabilized; concentration not given; reference: no-protein control): -0.146
CC(C)C[C@H](NC(=O)C[C@H](O)[C@H](CC(C)C)NC(=O)[C@H](Cc1c[nH]cn1)NC(=O)CNC(=O)[C@@H](NC(=O)[C@H](C)NC(=O)[C@H](Cc1c[nH]c2ccccc12)NC(=O)[C@H](CCC(N)=O)NC(=O)[C@@H](Cc1ccccc1)NC(=O)COCCOCCNC(=O)CCC(C(=O)O)N1CCN(CC(=O)O)CCN(CC(=O)O)CCN(CC(=O)O)CC1)C(C)C)C(N)=O (stereo partly drawn) [lutetium-177 labelled] — tissue uptake (female BALB/c nu/nu mice, kidneys; intravenous, 100 pmol, 24 h, together with: PA 300 µg): 1.3 ± 0.3 %ID/g
